Measured values gathered from unrelated publications.
Lines come from different studies, so protocols differ. ± marks the error that the study gave.
MAPK14: Mitogen-activated protein kinase 14 (MAPK14, Homo sapiens, UniProt Q16539)
Sequence of UniProt Q16539 (whole entry, looked up): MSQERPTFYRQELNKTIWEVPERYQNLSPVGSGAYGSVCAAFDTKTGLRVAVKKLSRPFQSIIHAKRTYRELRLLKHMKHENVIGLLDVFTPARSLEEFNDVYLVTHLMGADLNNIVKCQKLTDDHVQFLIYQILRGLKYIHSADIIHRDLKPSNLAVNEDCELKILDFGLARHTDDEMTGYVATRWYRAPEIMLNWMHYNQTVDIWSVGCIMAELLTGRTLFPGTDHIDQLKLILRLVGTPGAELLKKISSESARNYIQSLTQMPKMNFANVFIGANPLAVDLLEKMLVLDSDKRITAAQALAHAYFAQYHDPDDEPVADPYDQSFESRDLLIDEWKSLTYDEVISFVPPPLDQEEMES
Sequence of UniProt Q03431 (whole entry, looked up): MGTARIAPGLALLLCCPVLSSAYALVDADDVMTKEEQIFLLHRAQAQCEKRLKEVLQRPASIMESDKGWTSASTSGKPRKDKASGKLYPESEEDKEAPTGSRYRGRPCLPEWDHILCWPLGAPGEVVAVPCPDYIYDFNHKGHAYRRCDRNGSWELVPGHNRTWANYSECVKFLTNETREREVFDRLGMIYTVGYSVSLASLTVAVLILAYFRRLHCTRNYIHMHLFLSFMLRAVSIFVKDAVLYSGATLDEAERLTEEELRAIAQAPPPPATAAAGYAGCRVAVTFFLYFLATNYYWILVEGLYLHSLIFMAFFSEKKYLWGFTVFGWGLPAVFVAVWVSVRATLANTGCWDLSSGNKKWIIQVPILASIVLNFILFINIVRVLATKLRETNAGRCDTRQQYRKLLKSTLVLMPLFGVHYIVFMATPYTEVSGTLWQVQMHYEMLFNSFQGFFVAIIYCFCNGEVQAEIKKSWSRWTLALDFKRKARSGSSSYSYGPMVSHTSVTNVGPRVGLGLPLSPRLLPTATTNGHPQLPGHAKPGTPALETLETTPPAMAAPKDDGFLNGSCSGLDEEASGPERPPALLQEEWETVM
Sequence of UniProt O60603 (whole entry, looked up): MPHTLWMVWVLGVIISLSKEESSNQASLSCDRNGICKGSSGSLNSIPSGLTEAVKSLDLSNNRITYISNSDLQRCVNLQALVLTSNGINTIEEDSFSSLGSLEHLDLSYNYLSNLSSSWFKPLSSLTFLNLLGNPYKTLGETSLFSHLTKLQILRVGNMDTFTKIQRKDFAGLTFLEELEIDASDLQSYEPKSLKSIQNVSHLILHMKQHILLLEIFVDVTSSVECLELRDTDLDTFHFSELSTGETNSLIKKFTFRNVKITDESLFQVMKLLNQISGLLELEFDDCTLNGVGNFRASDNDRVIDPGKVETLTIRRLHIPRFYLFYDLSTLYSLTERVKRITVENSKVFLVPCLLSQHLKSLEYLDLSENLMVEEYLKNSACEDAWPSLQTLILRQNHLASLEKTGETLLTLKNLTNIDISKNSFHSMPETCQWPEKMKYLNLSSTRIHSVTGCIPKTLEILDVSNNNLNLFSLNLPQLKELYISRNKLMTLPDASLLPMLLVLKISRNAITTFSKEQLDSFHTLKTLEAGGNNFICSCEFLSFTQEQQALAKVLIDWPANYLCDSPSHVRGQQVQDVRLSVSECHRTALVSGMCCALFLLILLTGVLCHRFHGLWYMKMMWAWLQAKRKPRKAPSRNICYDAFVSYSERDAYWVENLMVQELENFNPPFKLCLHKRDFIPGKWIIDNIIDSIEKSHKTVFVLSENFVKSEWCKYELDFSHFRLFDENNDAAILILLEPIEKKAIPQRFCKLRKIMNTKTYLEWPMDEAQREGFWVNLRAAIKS
Sequence of UniProt Q99623 (whole entry, looked up): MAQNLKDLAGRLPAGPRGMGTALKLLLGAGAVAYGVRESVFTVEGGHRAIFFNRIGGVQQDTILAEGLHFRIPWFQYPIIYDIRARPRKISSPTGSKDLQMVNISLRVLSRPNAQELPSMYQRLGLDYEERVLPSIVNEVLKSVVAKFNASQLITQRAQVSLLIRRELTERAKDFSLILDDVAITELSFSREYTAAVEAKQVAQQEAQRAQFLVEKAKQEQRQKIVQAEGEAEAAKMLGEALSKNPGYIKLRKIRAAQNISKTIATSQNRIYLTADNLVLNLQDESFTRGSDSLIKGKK
Sequence of UniProt Q9Y6Y9 (whole entry, looked up): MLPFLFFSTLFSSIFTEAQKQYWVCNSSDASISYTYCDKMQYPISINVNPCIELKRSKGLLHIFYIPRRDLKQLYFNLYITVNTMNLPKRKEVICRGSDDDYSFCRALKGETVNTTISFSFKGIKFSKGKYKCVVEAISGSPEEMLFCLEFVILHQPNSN
Sequence of UniProt Q16236 (whole entry, unmodified, looked up): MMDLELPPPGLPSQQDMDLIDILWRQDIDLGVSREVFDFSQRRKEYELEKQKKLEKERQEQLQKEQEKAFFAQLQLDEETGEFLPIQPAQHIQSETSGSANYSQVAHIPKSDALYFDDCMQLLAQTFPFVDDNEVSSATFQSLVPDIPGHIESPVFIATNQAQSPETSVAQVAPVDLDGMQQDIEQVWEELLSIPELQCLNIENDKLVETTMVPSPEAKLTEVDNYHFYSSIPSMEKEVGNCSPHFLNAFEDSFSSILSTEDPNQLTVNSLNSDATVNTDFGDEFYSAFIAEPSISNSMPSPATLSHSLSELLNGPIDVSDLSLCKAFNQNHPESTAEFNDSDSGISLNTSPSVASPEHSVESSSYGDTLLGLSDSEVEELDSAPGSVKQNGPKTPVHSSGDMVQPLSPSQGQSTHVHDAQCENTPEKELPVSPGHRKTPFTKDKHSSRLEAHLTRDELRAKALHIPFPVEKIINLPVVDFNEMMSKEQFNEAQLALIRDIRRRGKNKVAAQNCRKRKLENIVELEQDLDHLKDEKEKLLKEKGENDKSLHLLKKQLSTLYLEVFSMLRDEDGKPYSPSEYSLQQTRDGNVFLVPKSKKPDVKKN
Sequence of UniProt C0HJB3 (whole entry, looked up): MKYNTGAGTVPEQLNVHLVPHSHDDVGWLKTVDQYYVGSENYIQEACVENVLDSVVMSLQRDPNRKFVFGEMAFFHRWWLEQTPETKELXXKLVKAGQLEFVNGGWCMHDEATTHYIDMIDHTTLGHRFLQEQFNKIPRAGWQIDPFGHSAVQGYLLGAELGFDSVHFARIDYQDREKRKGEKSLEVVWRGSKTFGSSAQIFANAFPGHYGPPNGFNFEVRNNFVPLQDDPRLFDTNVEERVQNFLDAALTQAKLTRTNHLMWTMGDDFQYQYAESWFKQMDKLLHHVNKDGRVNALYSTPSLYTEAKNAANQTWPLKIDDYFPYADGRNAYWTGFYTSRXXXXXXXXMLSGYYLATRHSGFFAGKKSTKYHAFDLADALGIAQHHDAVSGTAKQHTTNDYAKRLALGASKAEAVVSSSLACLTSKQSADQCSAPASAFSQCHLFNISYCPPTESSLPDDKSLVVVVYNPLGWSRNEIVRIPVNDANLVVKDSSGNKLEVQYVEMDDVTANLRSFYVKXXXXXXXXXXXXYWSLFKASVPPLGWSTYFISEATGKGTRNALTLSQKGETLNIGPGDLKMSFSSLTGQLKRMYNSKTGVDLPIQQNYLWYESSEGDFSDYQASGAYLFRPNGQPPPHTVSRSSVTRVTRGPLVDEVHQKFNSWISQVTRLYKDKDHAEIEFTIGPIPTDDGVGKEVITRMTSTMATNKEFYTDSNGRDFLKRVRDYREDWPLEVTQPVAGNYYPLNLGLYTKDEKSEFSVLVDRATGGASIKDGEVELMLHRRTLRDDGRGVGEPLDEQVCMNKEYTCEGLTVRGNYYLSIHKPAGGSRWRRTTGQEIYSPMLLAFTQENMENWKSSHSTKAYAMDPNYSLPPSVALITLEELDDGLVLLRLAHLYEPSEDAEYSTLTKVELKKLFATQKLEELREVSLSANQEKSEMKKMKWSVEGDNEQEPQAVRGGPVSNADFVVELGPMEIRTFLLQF
Sequence of UniProt P23919 (whole entry, looked up): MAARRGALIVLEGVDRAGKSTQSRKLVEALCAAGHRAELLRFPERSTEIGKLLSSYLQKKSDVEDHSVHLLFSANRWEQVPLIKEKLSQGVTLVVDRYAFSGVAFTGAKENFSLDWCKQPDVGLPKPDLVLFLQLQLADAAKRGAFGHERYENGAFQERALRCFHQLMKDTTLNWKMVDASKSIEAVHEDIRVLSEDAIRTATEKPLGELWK
Sequence of UniProt O77404 (whole entry, looked up): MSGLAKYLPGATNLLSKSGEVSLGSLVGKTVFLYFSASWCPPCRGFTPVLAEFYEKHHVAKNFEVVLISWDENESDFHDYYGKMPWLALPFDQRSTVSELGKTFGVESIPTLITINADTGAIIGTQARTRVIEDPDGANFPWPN
Sequence of UniProt P41148 (whole entry, looked up): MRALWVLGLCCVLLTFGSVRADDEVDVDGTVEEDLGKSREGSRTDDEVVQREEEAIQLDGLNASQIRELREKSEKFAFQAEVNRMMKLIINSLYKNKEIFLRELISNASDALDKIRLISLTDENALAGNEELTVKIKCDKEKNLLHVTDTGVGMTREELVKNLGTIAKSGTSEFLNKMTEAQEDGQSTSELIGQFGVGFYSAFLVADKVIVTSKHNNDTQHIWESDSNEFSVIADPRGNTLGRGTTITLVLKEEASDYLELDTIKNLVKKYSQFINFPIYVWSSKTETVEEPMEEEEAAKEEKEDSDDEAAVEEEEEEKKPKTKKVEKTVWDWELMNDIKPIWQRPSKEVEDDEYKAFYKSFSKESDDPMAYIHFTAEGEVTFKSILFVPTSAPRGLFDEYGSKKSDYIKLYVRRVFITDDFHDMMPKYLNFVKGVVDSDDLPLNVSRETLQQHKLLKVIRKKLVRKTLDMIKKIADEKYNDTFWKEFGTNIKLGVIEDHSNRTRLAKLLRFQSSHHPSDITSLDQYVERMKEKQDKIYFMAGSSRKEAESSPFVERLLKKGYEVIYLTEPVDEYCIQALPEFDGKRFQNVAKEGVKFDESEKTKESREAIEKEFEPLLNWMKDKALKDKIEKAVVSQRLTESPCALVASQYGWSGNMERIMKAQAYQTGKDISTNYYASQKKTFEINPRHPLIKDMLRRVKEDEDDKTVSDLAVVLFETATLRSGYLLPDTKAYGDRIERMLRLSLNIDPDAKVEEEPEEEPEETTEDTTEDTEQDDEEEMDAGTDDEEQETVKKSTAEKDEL

`Nc1nnc(Nc2ccc(Cl)cc2)[nH]1` has a Kd of greater than 300 µM (MAPK14; binding, MST).
For `CSCC[C@H](NC(=O)[C@H](CCC(N)=O)NC(=O)CNC(=O)CNC(=O)CNC(=O)[C@H](CCCNC(=N)N)NC(=O)[C@H](CCCNC(=N)N)NC(=O)[C@H](CCCNC(=N)N)NC(=O)[C@H](CCCNC(=N)N)NC(=O)[C@H](CCCNC(=N)N)NC(=O)[C@H](CCCNC(=N)N)NC(=O)[C@H](CCCNC(=N)N)NC(=O)[C@H](CCCNC(=N)N)NC(=O)[C@H](CCCNC(=N)N)NC(=O)[C@H](CCCNC(=N)N)NC(=O)[C@@H](N)CCCNC(=N)N)C(=O)N[C@@H](CC(C)C)C(=O)N[C@@H](CO)C(=O)N[C@@H](CC(=O)O)C(=O)N[C@@H](CC(C)C)C(=O)N[C@H](C(=O)N[C@@H](CC(C)C)C(=O)N[C@@H](CCC(N)=O)C(=O)N[C@@H](CC(C)C)C(=O)N[C@@H](CCCNC(=N)N)C(=O)N[C@@H](CCC(N)=O)C(=O)N[C@@H](CCCNC(=N)N)C(=O)O)[C@@H](C)O`, the Kd was 18.9 µM (Prohibitin-2 (PHB2, Homo sapiens, UniProt Q99623); binding, SPR).
`CN(C)CCNC(=O)c1cccc2c(NCCCCc3c(N)nc(N)nc3N)c3ccccc3nc12` gave a Kd of 271 ± 83 µM (RNA with U–U mismatch; binding, ITC; 25 °C, 2).
For `Cc1cn([C@H]2C[C@H](O)[C@@H](COP(=O)(O)O)O2)c(=O)[nH]c1=O`, the Kd was 2 µM (Thymidylate kinase (DTYMK, Homo sapiens, UniProt P23919); fluorescence competition; with: MABA-dTDP).
For `C[n+]1ccc(/C=N/NC(=O)c2cccc(C(=O)N/N=C/c3cc[n+](C)c4ccccc34)n2)c2ccccc21`, the Kd was 0.0075 ± 0.001 µM (MYC promoter G-quadruplex DNA; fluorescence titration; pH 7.2, 100 mM KCl, with: labelled DNA 2 nM).
The Kd of `O=C(Cc1ccc(F)cc1)NCCOc1ccc(-c2ccc(F)cc2)nn1` is reported as 0.13 µM (V-type immunoglobulin domain-containing suppressor of T-cell activation (VSIR, Homo sapiens, UniProt Q9H7M9); binding, MST).
The Kd of `O=C(O)COc1ccc(-c2ccccc2O)cc1Cl` is reported as 1500 ± 100 µM (Nuclear factor erythroid 2-related factor 2, Neh1 domain (NFE2L2, Homo sapiens, UniProt Q16236); binding, NMR chemical shift perturbation).
`O=P(O)(O)O[C@@H]1[C@@H](O)[C@H](O)[C@H](O)[C@H](O)[C@H]1OP(=O)(O)O` gave a Kd of 0.641 µM (Inositol 1,4,5-trisphosphate-gated calcium channel ITPR1, N-terminal region (Itpr1, Rattus norvegicus, UniProt P29994, del318-332); [3H]IP3 competition binding; N-terminal fragment).
`CCCN(CC(=O)N(CCC)CC(=O)N(CCC)CC(=O)N(CCC)CC(=O)N(CC(=O)N(CCC)CC(=O)N(CCC)CC(=O)N(CCC)CC(=O)N(CCC)CC(=O)N(CC(N)=O)Cc1cn(CCCNC(=O)CCCOc2cccc(-c3nc4ccc(-c5nc6ccc(N7CCN(C)CC7)cc6[nH]5)cc4[nH]3)c2)nn1)Cc1cn(CCCNC(=O)CCCOc2cccc(-c3nc4ccc(-c5nc6ccc(N7CCN(C)CC7)cc6[nH]5)cc4[nH]3)c2)nn1)C(=O)CNCc1cn(CCCNC(=O)CCCOc2cccc(-c3nc4ccc(-c5nc6ccc(N7CCN(C)CC7)cc6[nH]5)cc4[nH]3)c2)nn1` has a Kd of 0.43 ± 0.017 µM (herring sperm DNA; binding, fluorescence).
`O=c1ccn(C2OC(COP(=O)(O)OP(=O)(O)OP(=O)(O)O)C(O)C2O)c(=O)[nH]1` (stereo not shown) has a Kd of 83.1 ± 0.5 µM (Uncharacterized protein (Trypanosoma brucei brucei, UniProt Q386Q8); binding, surface plasmon resonance; Trypanosoma brucei).
For `O=c1c2ccccc2nc2n1CCC2O` (stereo not shown), the Kd was 4960 µM (Alpha-mannosidase (Canavalia ensiformis, UniProt C0HJB3); binding, surface plasmon resonance; 25 °C).
`N[C@@H](Cc1ccccc1)C(=O)N[C@@H](CCC(=O)O)C(=O)N[C@@H](CCC(=O)O)C(=O)N[C@@H](CCC(=O)O)C(=O)O` has a Kd of greater than 0.1 µM (Lymphocyte antigen 96 (LY96, Homo sapiens, UniProt Q9Y6Y9); binding).
With `CC[C@H](C)[C@H](NC(=O)[C@H](CCC(=O)O)NC(=O)[C@H](CO)NC(=O)[C@@H](N)C(C)C)C(=O)N[C@@H](CCC(N)=O)C(=O)N[C@@H](CC(C)C)C(=O)N[C@@H](CCSC)C(=O)N[C@@H](Cc1c[nH]cn1)C(=O)N[C@@H](CC(N)=O)C(=O)N[C@@H](CC(C)C)C(=O)NCC(=O)N[C@@H](CCCCN)C(=O)N[C@@H](Cc1c[nH]cn1)C(=O)N[C@@H](CC(C)C)C(=O)N[C@@H](CC(N)=O)C(=O)N[C@@H](CO)C(=O)N[C@@H](CCSC)C(=O)N[C@@H](CCC(=O)O)C(=O)N[C@@H](CCCNC(=N)N)C(=O)N[C@H](C(=O)N[C@@H](CCC(=O)O)C(=O)N[C@@H](Cc1c[nH]c2ccccc12)C(=O)N[C@@H](CC(C)C)C(=O)N[C@@H](CCCNC(=N)N)C(=O)N[C@@H](CCCCN)C(=O)N[C@@H](CCCCN)C(=O)N[C@@H](CC(C)C)C(=O)N[C@@H](CCC(N)=O)C(=O)N[C@@H](CC(=O)O)C(=O)N[C@H](C(=O)N[C@@H](Cc1c[nH]cn1)C(=O)N[C@@H](CC(N)=O)C(=O)N[C@@H](Cc1ccccc1)C(=O)N[C@@H](CCCCNC(=O)c1ccc2c(c1)C1(OC2=O)c2ccc(N(C)C)cc2Oc2cc(N(C)C)ccc21)C(N)=O)C(C)C)C(C)C` the Kd was 0.021 ± 0.006 µM (Parathyroid hormone/parathyroid hormone-related peptide receptor (PTH1R, Homo sapiens, UniProt Q03431); binding, NanoBRET; 0.02% sodium azide).
`CCCCCCCCCCCCCCCC(=O)OC[C@H](CSC[C@H](NC(=O)COCC(=O)NCCCOCCOCCOCCCNC(=O)CN(CCN(CCN(CC(=O)O)CC(=O)O)CC(=O)O)CC(=O)O)C(=O)NCC(=O)N[C@H](CO)C(=O)NCCCOCCOCCOCCCNC(=O)COCC(N)=O)OC(=O)CCCCCCCCCCCCCCC` gave a Kd of less than 0.1 µM (Toll-like receptor 2 (TLR2, Homo sapiens, UniProt O60603); binding, europium TRF saturation binding in cells).
`C[n+]1ccc(/C=N/NC(=O)c2cncc(C(=O)N/N=C/c3cc[n+](C)c4ccccc34)n2)c2ccccc21` gave a Kd of 0.016 µM (telomeric G4 DNA hybrid-1; binding, native ESI-MS; 100 mM trimethylammonium acetate; 1 mM KCl).
The Kd of `COC(=O)c1c(O)cc(O)c(Cl)c1CCc1ccccc1Cc1ccc(Cl)cc1` is reported as 4.2 µM (Endoplasmin (HSP90B1, Canis lupus familiaris, UniProt P41148); ligand displacement, FP).
For `CC[C@H](C)[C@H](NC(=O)[C@H](C)NC(=O)[C@H](CCCNC(=N)N)NC(=O)[C@H](CC(C)C)NC(=O)[C@H](CCC(=O)O)NC(=O)c1ccc2c(c1)C(=O)OC21c2ccc(O)cc2Oc2cc(O)ccc21)C(=O)N[C@H](C(=O)N[C@@H](CCCCN)C(=O)N[C@@H](CCCCN)C(=O)N[C@H](C(=O)N[C@@H](Cc1c[nH]c2ccccc12)C(=O)N[C@@H](CCCCN)C(=O)N[C@@H](CCCNC(=N)N)C(=O)N[C@H](C(=O)N[C@@H](CO)C(=O)N[C@@H](CCSC)C(=O)N[C@@H](CCCCN)C(=O)N[C@@H](CC(C)C)C(=O)N[C@@H](CC(C)C)C(=O)N[C@@H](CC(=O)O)C(=O)N[C@@H](CCC(N)=O)C(=O)N[C@H](C(=O)N[C@H](C(=O)O)C(C)C)C(C)C)[C@@H](C)O)[C@@H](C)CC)[C@@H](C)CC`, the Kd was no more than 0.07 µM (Calmodulin-1, N-lobe (Calm1, Rattus norvegicus, UniProt P0DP29); calmodulin N-domain binding, fluorescence anisotropy; pH 7.4, 22 °C, calcium-saturated, with: CaM N-domain, fluorescein-Cav1.2 peptide).
`COc1cc2c(cc1-c1c(C)noc1C)ncc1[nH]c(=O)n([C@H](C)c3ccccn3)c12` has a Kd of 37 ± 22 µM (Bromodomain factor 3 (Trypanosoma brucei brucei, UniProt Q383S2); SPR; Trypanosoma brucei).
With `O=c1[nH]c(CCl)nc2scc(-c3ccc(C(F)(F)F)cc3)c12` the Kd was 410 ± 56 µM (Tryparedoxin (Trypanosoma brucei brucei, UniProt O77404); inhibitor-induced homodimer dissociation, dilution ITC).
`O=c1c2ccccc2ncn1-c1ccccc1F` gave a Kd of 893 µM (MAPK14; binding, microscale thermophoresis; saturation not reached).
`CC[C@H](C)[C@H](NC(=O)[C@H](CCC(N)=O)NC(=O)[C@H](CO)NC(=O)[C@H](CC(C)C)NC(=O)[C@H](CCC(=O)O)NC(=O)[C@H](CCC(=O)O)NC(=O)[C@H](CC(=O)O)NC(=O)[C@@H](NC(=O)[C@@H](NC(=O)[C@@H](NC(=O)[C@H](CC(=O)O)NC(=O)[C@H](Cc1ccccc1)NC(=O)[C@@H](NC(=O)[C@H](C)NC(=O)[C@H](CC(=O)O)NC(=O)[C@H](CC(=O)O)NC(=O)CCNC(=O)CCNC(=O)CCCC[C@@H]1SC[C@@H]2NC(=O)N[C@@H]21)C(C)C)[C@@H](C)CC)[C@@H](C)CC)[C@@H](C)O)C(=O)N[C@@H](CCC(N)=O)C(=O)N[C@@H](CCC(=O)O)C(=O)N[C@@H](Cc1c[nH]c2ccccc12)C(N)=O` has a Kd of 0.33 µM (Microtubule-associated protein 1 light chain 3 beta (Homo sapiens, UniProt Q9GZQ8); binding, BLI; pH 7.4).
With `CC(=O)N[C@H]1[C@@H](OC(=O)NCCOCCOCCNC(=O)O[C@H]2O[C@H](CO)[C@@H](O)[C@H](O)[C@H]2NC(C)=O)O[C@H](CO)[C@@H](O)[C@@H]1O` the Kd was 1.92 µM (wheat germ agglutinin (Triticum vulgaris); binding, isothermal titration calorimetry).

Excerpt of the above:
The Kd of `O=C(Cc1ccc(F)cc1)NCCOc1ccc(-c2ccc(F)cc2)nn1` is reported as 0.13 µM (V-type immunoglobulin domain-containing suppressor of T-cell activation (VSIR, Homo sapiens, UniProt Q9H7M9); binding, MST).
`Nc1nnc(Nc2ccc(Cl)cc2)[nH]1` has a Kd of greater than 300 µM (MAPK14; binding, MST).
